Measured values gathered from unrelated publications.
Lines come from different studies, so protocols differ. Numbers after ± are the reported error.

SMILES = C=CC(=O)N(C)CCOc1c(N)ncnc1-c1cc(F)cc(NC(=O)c2ccc(C3CC3)cc2F)c1C; test system = human, whole blood; conditions = oral, 100 mg, single ascending dose, fasted; Cmax = 141 ng/mL
SMILES = FC(F)(F)c1ccc(CNc2ccc(Cc3c[nH]c4ncc(Cl)cc34)cn2)cn1; assay = measured: total radioactivity; test system = healthy human male, whole blood; conditions = oral, 400 mg [14C]-labelled; Cmax = 2800 ng/mL
SMILES = CO[C@H]1C[C@@H]2CC[C@@H](C)[C@@](O)(O2)C(=O)C(=O)N2CCCC[C@H]2C(=O)O[C@H]([C@H](C)C[C@@H]2CC[C@@H](OCCO)[C@H](OC)C2)CC(=O)[C@H](C)/C=C(\C)[C@@H](O)[C@@H](OC)C(=O)[C@H](C)C[C@H](C)/C=C/C=C/C=C/1C; test system = human, plasma; conditions = oral, 5 mg, cycle 1 day 1, single dosing, with: vorolanib 100 mg; Cmax = 41.1 ± 24 ng/mL
SMILES = NC(=O)N1c2ccccc2C=Cc2ccccc21; test system = healthy human subjects, plasma; conditions = oral, dose not given, day 20, twice daily, alone; Cmax = 7780 ng/mL
SMILES = CC(C)(Sc1ccncc1-c1ccc(C#N)c2ccccc12)C(=O)O; test system = human, plasma; conditions = oral, 2.5 mg once daily, with: febuxostat 0 mg; Cmax = 7.39 ng/mL
SMILES = COc1cc(C(=O)NC2CCN(C)CC2)c(F)cc1Nc1ncc(C(F)(F)F)c(Oc2cccc3c2C(=O)N(C)C3)n1; test system = human, Taiwanese, plasma; conditions = oral, 200 mg single dose, geometric mean; Cmax = 1530 nM
SMILES = Cn1c(=O)oc2ccc(-c3ccc(C[C@@H](C#N)NC(=O)[C@@H]4CNCCCO4)cc3)cc21; assay = HPLC-MS/MS; test system = healthy male humans, plasma; conditions = oral, 40 mg; Cmax = 1240 nM
SMILES = C[C@H](CCC(=O)O)[C@H]1CC[C@H]2[C@@H]3[C@H](O)C[C@@H]4C[C@H](O)CC[C@]4(C)[C@H]3C[C@H](O)[C@]12C; test system = human, plasma; conditions = concentration not given, endogenous control diurnal; Cmax = 94.2 ± 39.9 nM
SMILES = N#C[C@H](C[C@@H]1CCCNC1=O)NC(=O)[C@H](CC1CC1)NC(=O)c1cc2cccc(Cl)c2[nH]1; test system = human, plasma; conditions = 225 mg twice daily, day 5; Cmax = 1940 ng/mL
SMILES = CNC(=O)c1ccc(-c2cnc3ncc(Cc4ccc5ncccc5c4)n3n2)cc1F; test system = human moderate hepatic impairment NCI; conditions = oral, 200 mg single dose, geometric mean; Cmax = 1940 ng/mL
SMILES = Cc1ccc(C(=O)N(CCCN)C(c2nc3snc(C)c3c(=O)n2Cc2ccccc2)C(C)C)cc1 (centres unmarked); test system = human patients, plasma; conditions = intravenous, 7 mg/day, day 3 of induction course, geometric mean; Cmax = 41.9 ng/mL
SMILES = O=C(COc1ccc(Cl)cc1)NC12CC(c3nnc([C@H]4C[C@@H](OC(F)(F)F)C4)o3)(C1)C2; test system = healthy human volunteers fasted, plasma; conditions = oral, 45 mg single dose, arithmetic mean; Cmax = 535 nM
SMILES = COc1cc([C@@H]2Oc3c(O)ccc([C@H]4Oc5cc(O)cc(O)c5C(=O)[C@@H]4O)c3[C@H]2CO)ccc1O; test system = OATP1B1/1B3 humanized mice, plasma; conditions = oral gavage, 500 mg/kg silymarin; Cmax = 70 nM
SMILES = COc1ccc2nc([S@@+]([O-])Cc3ncc(C)c(OC)c3C)[nH]c2c1; test system = human, dried blood spots; conditions = oral, 10 mg omeprazole, with: voriconazole; Cmax = 193 ng/mL
SMILES = COc1nnc2ccc(N3CCC(c4ccc(OCCN5CCN(C)C(=O)[C@H]5C)cc4)CC3)nn12; test system = human, plasma; conditions = oral, 30 mg once daily, single dose, monotherapy; Cmax = 245 nM
SMILES = Cc1cc(-c2nnc(N)nc2-c2ccc(F)cc2)cc(Cl)n1; test system = human patients, plasma; conditions = oral, 75 mg nanosuspension once daily, multiple doses, arithmetic mean; Cmax = 374 ng/mL
SMILES = Nc1c2c(cc3c1CCC3)CCC2; test system = human, plasma; conditions = oral, 300 mg twice daily of GDC-2394, day 7, multiple ascending dose; Cmax = 19.9 ng/mL
SMILES = COC[C@@H](c1ccc(C(F)(F)F)cc1)N1CCN(C2(C)CCN(C(=O)c3c(C)ncnc3C)CC2)C[C@@H]1C; test system = human; conditions = oral, 15 mg once daily, steady state, population PK, with: ritonavir; Cmax = 95 ng/mL
SMILES = CC(C)NC(=O)COc1cccc(-c2nc(Nc3ccc4[nH]ncc4c3)c3ccccc3n2)c1; test system = human male, plasma; conditions = oral, dose not given, day 12, adjusted geometric mean, with: dabigatran etexilate; Cmax = 2180 ng/mL
SMILES = Cc1cc(Nc2cc3ncccc3c(N[C@@H]3C[C@H]4CC[C@@H](C3)N4CCC#N)n2)n[nH]1; test system = human, plasma; conditions = 80 mg, day 1, geometric mean; Cmax = 1.58 ng/mL
